# Assay results of several laboratories.
# Every numbered part comes from another study and shows a few of its results, in no order. Changes are numbered by the printed parent chain.

# Series 1 — effect on: enzyme activity; mode: inhibitor; tested at: 0.5 µM; relative to: control
# Target: Ribosomal protein S6 kinase alpha-6 (RPS6KA6, Homo sapiens, UniProt Q9UK32)
# UniProt Q9UK32, sequence (whole entry, looked up): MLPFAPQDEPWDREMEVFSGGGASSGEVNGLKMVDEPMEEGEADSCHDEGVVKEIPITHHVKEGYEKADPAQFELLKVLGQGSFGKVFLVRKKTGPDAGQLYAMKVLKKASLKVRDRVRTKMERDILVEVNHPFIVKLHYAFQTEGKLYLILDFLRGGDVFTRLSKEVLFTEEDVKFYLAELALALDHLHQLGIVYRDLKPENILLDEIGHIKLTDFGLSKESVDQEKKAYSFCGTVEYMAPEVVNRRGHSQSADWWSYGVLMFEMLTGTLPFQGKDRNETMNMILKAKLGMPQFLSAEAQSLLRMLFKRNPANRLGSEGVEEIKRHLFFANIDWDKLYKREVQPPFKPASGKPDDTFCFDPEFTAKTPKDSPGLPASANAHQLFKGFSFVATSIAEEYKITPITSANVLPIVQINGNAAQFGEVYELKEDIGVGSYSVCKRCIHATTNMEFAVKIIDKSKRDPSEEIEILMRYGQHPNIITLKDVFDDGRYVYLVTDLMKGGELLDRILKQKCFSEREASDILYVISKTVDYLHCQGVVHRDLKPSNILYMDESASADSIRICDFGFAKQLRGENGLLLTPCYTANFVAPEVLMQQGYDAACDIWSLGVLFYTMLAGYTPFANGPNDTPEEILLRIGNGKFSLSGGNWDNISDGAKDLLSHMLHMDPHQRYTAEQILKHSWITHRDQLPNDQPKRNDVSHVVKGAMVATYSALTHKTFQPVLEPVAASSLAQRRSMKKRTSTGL
Compound,remaining activity [%]
O=C(CCCc1ccc(-c2ccccc2F)cc1)Nc1ccc(O)cc1,105
O=C1NC(=O)C(c2cn(CCCn3ccnc3)c3ccccc23)=C1Nc1ccccc1,2
COc1ccc(CNC(=O)Nc2ncc([N+](=O)[O-])s2)cc1,99.8
O=C(O)c1ccc2c3c1cccc3c(=O)n1c3ccccc3nc21,101
COc1cc2ncnc(Nc3ccc(Oc4ccccc4)cc3)c2cc1OC,111
CO[C@H]1C[C@@H]2CC[C@@H](C)[C@@](O)(O2)C(=O)C(=O)N2CCCC[C@H]2C(=O)O[C@H]([C@H](C)C[C@@H]2CC[C@@H](O)[C@H](OC)C2)CC(=O)[C@H](C)/C=C(\C)[C@@H](O)[C@@H](OC)C(=O)[C@H](C)C[C@H](C)/C=C/C=C/C=C/1C,118
Nc1ccc2ncnc(NCCc3ccc(Oc4ccccc4)cc3)c2c1,103
N#CC(C#N)=C(N)/C(C#N)=C/c1ccc(O)cc1,104
Nc1ncnc2n[nH]c(Nc3ccc(F)cc3)c12,71.7
CNC(=O)c1cc(Oc2ccc(NC(=O)Nc3ccc(Cl)c(C(F)(F)F)c3)cc2)ccn1,97.3
Cc1nc(-c2ccccc2)c(-c2ccncc2)o1,115
COc1cc2nccc(Oc3ccc(NC(=S)NC(=O)c4ccccc4C)cc3)c2cc1OC,93
O=c1c2ccccc2[nH]c(=S)n1CCN1CCC(=C(c2ccc(F)cc2)c2ccc(F)cc2)CC1,101
NCCNc1ncc(C(N)=O)c(Nc2cccc(C(F)(F)F)c2)n1,86.7
Cn1c2ccccc2c2c3c(c4c5ccccc5n(CCC#N)c4c21)CNC3=O,4.2

# Series 2 — target: CCNF, cyclin fold, Cln2 fusion (human); technique: yeast growth competition, sequencing; medium: yeast; notes: strong parent motif; relative to: not given; direction: higher = stronger binding
# Starting sequence: RBL1 docking peptide (human); GSAKRRLFGEDPP
Variant,normalised enrichment score
R5Y,0.276
K4N,5.36
F8Y,3.24
P12Y,8.49
D11P,5.98
F8E,0.125
K4P,3.49
F8H,0.435

# Series 3 — target: CRIPT, C-terminal peptide; technique: DHFR complementation, deep sequencing; medium: yeast; relative to: wild type; direction: higher = weaker binding
# Notes: single substitutions, model-inferred values
# Starting sequence: ERBIN, PDZ domain 1 (human); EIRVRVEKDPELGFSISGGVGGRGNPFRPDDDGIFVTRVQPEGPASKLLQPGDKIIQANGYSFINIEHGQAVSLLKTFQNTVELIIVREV; partner TKNYKQTSV
Variant,binding free energy change
Q70R,0.0571 kcal/mol
G22H,0.366 kcal/mol
D31Y,1.44 kcal/mol
N65W,0.16 kcal/mol
D53T,0.0826 kcal/mol
Q79G,0.0149 kcal/mol
I16W,1.34 kcal/mol
V82G,0.709 kcal/mol

# Series 4 — cell line: sample D normal colon organoid; technique: CellTiter-Glo; tested at: 1 µM; notes: mean of replicates; relative to: DMSO
SMILES,viability
CC(=O)N1CCC(c2ccc(C(=O)NC(=N)N)cc2C(F)(F)F)CC1,109%
Cc1ccc2nc(CNCCCOc3ccccc3)cc(O)c2c1,127%
O=C(Nc1cnc(Oc2ccc(F)cc2)nc1)N1CCc2ncccc2[C@@H]1c1ccc(F)cc1,139%
O=C(NS(=O)(=O)c1ccc(NCC2CCOCC2)c([N+](=O)[O-])c1)c1ccc(N2CCN(Cc3ccc(C(F)(F)F)cc3-c3ccc(Cl)cc3)CC2)cc1Oc1cnc2[nH]ccc2c1,84.1%
NS(=O)(=O)c1cc(NC(=O)C2(c3ccccc3Cl)CC2)ccc1Oc1cccc(Cl)c1,95%
CC1=C(C#N)C(c2ccc3[nH]nc(C)c3c2)C(C#N)=C(C)N1,108%
CC(=O)C1=C(C)N(c2cccc(C(F)(F)F)c2)C(=O)N[C@H]1c1ccc(C#N)nc1,102%
Cc1nc(N2CC[C@@H](O)C2)ncc1-c1cc(C(F)(F)F)cc2[nH]ncc12,89.2%
CN([C@@H]1CCc2c(CC(=O)O)c3ccccc3n2C1)S(=O)(=O)c1ccc(F)cc1,108%
C[C@H](NC(=O)c1cnc2n1[C@](C)(Cc1ccc(C#N)cc1)C(=O)N2c1cc(Cl)c(F)c(Cl)c1)C(=O)NC1(c2ccccn2)CC1,98.6%
CN(C)CC#Cc1ccc(OCCCc2sc(N3CCc4cccc(C(=O)Nc5nc6ccccc6s5)c4C3)nc2C(=O)O)c(F)c1,82.2%

# A few entries again (series 1):
Compound,remaining activity [%]
O=C(O)c1ccc2c3c1cccc3c(=O)n1c3ccccc3nc21,101
COc1cc2ncnc(Nc3ccc(Oc4ccccc4)cc3)c2cc1OC,111
CO[C@H]1C[C@@H]2CC[C@@H](C)[C@@](O)(O2)C(=O)C(=O)N2CCCC[C@H]2C(=O)O[C@H]([C@H](C)C[C@@H]2CC[C@@H](O)[C@H](OC)C2)CC(=O)[C@H](C)/C=C(\C)[C@@H](O)[C@@H](OC)C(=O)[C@H](C)C[C@H](C)/C=C/C=C/C=C/1C,118
Nc1ccc2ncnc(NCCc3ccc(Oc4ccccc4)cc3)c2c1,103
N#CC(C#N)=C(N)/C(C#N)=C/c1ccc(O)cc1,104
Nc1ncnc2n[nH]c(Nc3ccc(F)cc3)c12,71.7
